Published values gathered from unrelated publications.
Each numbered part is a random draw from the data of one study; scales do not carry over between parts.
UniProt P42336, sequence (whole entry, unmodified, looked up): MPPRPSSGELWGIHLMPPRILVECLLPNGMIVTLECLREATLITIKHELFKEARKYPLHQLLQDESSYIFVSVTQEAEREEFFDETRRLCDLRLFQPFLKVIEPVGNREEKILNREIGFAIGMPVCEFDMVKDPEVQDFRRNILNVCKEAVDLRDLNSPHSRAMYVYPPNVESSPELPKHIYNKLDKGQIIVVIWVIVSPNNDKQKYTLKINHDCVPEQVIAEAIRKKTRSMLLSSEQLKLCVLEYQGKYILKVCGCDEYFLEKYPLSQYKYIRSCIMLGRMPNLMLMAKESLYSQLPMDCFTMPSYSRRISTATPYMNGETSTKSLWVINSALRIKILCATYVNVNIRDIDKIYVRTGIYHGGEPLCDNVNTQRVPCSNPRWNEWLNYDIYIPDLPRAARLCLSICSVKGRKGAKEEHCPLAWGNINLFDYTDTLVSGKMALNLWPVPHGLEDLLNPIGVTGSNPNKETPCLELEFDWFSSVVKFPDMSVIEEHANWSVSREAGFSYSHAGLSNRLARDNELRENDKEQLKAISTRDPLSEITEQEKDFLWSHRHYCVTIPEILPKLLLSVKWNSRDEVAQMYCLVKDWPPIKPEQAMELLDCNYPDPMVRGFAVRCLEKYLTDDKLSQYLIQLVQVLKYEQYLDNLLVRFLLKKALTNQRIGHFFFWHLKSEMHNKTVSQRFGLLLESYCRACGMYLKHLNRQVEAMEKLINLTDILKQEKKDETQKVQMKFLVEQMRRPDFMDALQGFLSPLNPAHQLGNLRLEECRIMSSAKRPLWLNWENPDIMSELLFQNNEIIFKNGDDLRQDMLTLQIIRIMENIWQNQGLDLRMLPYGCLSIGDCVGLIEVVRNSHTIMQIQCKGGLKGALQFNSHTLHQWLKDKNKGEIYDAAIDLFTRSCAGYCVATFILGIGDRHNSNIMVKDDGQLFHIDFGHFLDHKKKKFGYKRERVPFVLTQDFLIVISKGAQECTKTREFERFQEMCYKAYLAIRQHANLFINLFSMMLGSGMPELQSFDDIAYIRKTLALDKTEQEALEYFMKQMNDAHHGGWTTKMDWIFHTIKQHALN
UniProt Q15139, sequence (whole entry, looked up): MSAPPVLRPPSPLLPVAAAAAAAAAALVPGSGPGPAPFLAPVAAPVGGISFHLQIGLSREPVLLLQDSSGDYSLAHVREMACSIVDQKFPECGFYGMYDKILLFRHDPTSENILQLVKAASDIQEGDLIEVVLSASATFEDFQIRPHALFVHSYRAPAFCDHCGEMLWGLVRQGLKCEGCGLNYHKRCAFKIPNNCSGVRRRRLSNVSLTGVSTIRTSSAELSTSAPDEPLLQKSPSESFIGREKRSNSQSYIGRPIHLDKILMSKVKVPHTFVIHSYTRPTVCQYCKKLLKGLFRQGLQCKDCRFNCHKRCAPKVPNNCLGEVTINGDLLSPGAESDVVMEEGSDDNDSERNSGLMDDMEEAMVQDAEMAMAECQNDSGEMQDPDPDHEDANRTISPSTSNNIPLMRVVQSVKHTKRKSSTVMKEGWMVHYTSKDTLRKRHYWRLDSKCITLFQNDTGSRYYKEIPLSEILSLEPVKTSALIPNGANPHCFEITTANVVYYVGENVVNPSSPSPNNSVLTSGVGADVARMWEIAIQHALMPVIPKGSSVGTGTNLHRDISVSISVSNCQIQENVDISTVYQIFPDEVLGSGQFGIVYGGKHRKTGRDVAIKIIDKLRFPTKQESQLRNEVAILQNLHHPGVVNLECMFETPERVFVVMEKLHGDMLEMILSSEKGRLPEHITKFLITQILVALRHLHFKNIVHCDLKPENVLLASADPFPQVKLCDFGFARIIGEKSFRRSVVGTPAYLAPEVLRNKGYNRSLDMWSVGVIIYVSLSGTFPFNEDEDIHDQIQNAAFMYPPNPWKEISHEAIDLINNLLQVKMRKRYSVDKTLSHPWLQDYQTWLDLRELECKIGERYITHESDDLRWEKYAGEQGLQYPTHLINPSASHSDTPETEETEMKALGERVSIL
UniProt Q8IU85, sequence (whole entry, looked up): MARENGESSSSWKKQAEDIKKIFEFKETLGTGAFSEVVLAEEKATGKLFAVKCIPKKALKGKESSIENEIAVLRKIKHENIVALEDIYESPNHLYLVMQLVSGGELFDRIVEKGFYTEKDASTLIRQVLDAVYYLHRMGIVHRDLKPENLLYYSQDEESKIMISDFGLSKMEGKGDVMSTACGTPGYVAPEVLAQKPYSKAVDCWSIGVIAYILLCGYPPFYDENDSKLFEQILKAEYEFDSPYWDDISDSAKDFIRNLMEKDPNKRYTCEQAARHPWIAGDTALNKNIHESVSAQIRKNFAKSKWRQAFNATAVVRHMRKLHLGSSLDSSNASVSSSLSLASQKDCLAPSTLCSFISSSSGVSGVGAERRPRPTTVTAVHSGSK

Set 1
SMILES: CNCc1ccccc1-c1csc([C@H](C)Nc2nc(C)nc3cc(OC)c(OC)cc23)c1
Effect on: cell-free assay
Method: competition with immobilised ligand
Concentration: 1 µM
Mast/stem cell growth factor receptor Kit (KIT, Homo sapiens, UniProt P10721, V559D) — remaining binding: 100%.
It gave 100% for remaining binding (Mitogen-activated protein kinase kinase kinase 4 (MAP3K4, Homo sapiens, UniProt Q9Y6R4)).
The remaining binding was 100% (Serine/threonine-protein kinase MARK2 (MARK2, Homo sapiens, UniProt Q7KZI7)).
It gave 100% for remaining binding (Serine/threonine-protein kinase D1 (PRKD1, Homo sapiens, UniProt Q15139)).
For Myosin-IIIa (MYO3A, Homo sapiens, UniProt Q8NEV4): remaining binding read 100%.
Phosphatidylinositol 4,5-bisphosphate 3-kinase catalytic subunit alpha isoform (PIK3CA, Homo sapiens, UniProt P42336, H1047L) — remaining binding: 88%.
The remaining binding was 100% (1-phosphatidylinositol 3-phosphate 5-kinase (PIKFYVE, Homo sapiens, UniProt Q9Y2I7)).
The remaining binding was 100% (Serine/threonine-protein kinase pim-2 (PIM2, Homo sapiens, UniProt Q9P1W9)).
Tyrosine-protein kinase JAK1, JH1 (JAK1, Homo sapiens, UniProt P23458) — remaining binding: 89%.
It gave 100% for remaining binding (STE20/SPS1-related proline-alanine-rich protein kinase (STK39, Homo sapiens, UniProt Q9UEW8)).
For Mitogen-activated protein kinase kinase kinase 20 (MAP3K20, Homo sapiens, UniProt Q9NYL2): remaining binding read 100%.
It gave 100% for remaining binding (STE20-like serine/threonine-protein kinase (SLK, Homo sapiens, UniProt Q9H2G2)).
It gave 87% for remaining binding (Serine/threonine-protein kinase PLK3 (PLK3, Homo sapiens, UniProt Q9H4B4)).
For Serine/threonine-protein kinase NIM1 (NIM1K, Homo sapiens, UniProt Q8IY84): remaining binding read 90%.

Set 2
Target: DNA polymerase theta, ATPase domain (POLQ, Homo sapiens, UniProt O75417)
UniProt O75417, sequence (whole entry, unmodified, looked up): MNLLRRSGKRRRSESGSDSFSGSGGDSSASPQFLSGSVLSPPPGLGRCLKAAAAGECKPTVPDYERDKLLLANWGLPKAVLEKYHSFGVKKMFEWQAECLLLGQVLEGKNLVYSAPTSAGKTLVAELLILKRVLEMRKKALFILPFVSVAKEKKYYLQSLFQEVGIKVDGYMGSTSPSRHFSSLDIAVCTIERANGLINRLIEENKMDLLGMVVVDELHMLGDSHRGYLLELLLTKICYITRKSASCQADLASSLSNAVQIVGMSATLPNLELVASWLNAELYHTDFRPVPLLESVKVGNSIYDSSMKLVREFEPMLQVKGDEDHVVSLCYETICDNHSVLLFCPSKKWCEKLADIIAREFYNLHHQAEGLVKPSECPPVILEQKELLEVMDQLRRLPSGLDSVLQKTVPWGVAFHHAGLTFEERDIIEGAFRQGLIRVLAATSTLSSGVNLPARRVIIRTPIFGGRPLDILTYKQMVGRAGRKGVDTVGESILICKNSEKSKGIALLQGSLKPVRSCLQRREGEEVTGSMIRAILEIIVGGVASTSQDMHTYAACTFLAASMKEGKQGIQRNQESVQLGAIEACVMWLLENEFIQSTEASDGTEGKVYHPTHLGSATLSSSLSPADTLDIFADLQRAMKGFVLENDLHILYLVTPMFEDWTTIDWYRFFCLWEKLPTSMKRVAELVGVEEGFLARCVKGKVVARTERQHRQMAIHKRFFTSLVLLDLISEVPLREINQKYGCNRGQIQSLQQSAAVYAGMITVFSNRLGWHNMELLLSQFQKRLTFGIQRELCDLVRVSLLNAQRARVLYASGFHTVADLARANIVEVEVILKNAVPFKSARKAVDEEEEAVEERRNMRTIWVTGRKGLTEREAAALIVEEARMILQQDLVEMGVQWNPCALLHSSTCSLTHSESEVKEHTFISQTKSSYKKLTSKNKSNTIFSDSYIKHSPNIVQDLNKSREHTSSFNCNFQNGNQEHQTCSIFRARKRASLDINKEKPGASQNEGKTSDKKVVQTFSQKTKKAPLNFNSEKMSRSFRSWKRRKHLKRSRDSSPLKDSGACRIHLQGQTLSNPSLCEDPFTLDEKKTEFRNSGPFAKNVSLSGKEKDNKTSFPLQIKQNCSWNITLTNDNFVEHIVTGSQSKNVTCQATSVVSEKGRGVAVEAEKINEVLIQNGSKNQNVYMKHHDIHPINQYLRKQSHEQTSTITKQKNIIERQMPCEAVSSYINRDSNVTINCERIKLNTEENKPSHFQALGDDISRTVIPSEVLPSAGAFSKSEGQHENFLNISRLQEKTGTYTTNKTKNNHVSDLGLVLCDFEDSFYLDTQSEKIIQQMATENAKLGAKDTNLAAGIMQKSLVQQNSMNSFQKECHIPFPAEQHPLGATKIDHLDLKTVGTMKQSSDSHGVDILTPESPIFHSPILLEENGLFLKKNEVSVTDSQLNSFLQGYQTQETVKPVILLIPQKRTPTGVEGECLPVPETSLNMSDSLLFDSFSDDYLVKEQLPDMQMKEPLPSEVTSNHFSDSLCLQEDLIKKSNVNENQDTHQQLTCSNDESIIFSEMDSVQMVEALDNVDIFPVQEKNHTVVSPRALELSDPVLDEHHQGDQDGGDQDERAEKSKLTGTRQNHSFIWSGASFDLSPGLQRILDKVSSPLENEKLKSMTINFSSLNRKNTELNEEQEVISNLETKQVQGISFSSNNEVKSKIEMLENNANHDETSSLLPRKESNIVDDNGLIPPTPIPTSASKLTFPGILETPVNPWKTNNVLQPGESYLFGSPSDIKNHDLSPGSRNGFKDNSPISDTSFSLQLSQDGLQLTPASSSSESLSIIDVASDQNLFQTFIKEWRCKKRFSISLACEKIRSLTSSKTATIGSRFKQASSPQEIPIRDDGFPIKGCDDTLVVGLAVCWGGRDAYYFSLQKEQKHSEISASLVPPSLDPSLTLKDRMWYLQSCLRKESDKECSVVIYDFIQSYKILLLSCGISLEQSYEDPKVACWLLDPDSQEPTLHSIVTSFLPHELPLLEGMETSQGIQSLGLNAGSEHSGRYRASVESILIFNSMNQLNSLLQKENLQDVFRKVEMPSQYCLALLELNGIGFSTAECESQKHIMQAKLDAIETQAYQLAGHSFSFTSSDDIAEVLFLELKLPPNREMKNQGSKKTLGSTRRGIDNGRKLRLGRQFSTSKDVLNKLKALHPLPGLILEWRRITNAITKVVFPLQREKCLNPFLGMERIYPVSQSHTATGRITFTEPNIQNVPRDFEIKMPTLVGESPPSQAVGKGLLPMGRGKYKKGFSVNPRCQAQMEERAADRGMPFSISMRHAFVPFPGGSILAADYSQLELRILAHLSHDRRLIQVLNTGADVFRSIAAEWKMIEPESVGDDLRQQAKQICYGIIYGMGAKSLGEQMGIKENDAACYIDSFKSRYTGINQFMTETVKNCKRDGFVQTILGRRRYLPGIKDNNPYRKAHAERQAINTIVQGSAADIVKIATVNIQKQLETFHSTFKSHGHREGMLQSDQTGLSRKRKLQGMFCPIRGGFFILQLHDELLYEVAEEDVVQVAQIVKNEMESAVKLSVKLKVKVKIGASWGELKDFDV
Effect on: enzyme activity
Mode: inhibitor
Concentration: 77 µM
The remaining activity of O=C(NCC(O)CO)c1c(I)c(C(=O)NCC(O)CO)c(I)c(N(CCO)C(=O)CO)c1I (centres unmarked) is reported as 94%.
For CC(C)NC[C@H](O)COc1cccc2ccccc12, the remaining activity was 101%.
For CN[C@H](CC(C)C)C(=O)N[C@H]1C(=O)N[C@@H](CC(N)=O)C(=O)N[C@H]2C(=O)N[C@H]3C(=O)N[C@H](C(=O)N[C@H](C(=O)O)c4cc(O)cc(O)c4-c4cc3ccc4O)[C@H](O)c3ccc(c(Cl)c3)Oc3cc2cc(c3O[C@@H]2O[C@H](CO)[C@@H](O)[C@H](O)[C@H]2O[C@H]2C[C@](C)(N)[C@H](O)[C@H](C)O2)Oc2ccc(cc2Cl)[C@H]1O, the remaining activity was 108%.
Cc1ccc(C(=O)N(CCCN)[C@@H](c2nc3cc(Cl)ccc3c(=O)n2Cc2ccccc2)C(C)C)cc1 gave a remaining activity of 75.7%.
C=C1CC[C@H](O)C/C1=C/C=C1\CCC[C@]2(C)[C@@H]([C@H](C)CCCC(C)C)CC[C@@H]12 has a remaining activity of 97.5%.
With COc1ccc(CNc2nc(N(CCO)CCO)nc3c2ncn3C(C)C)cc1 the remaining activity was 113%.
CNCCC(Oc1ccc(C(F)(F)F)cc1)c1ccccc1 (centres unmarked) gave a remaining activity of 94.7%.
For Nc1ncnc2nc(-c3ccc(N4CCOCC4)nc3)cc(-c3cccc(Br)c3)c12, the remaining activity was 81%.
For CC[N+](C)(C)c1cccc(O)c1, the remaining activity was 92.1%.

Set 3
SMILES: C=CC(=O)N1CCC([C@@H]2CCNc3c(C(N)=O)c(-c4ccc(Oc5ccccc5)cc4)nn32)CC1
Concentration: 1 µM
The inhibition was 36% (Phosphatidylinositol 4,5-bisphosphate 3-kinase catalytic subunit alpha isoform (PIK3CA, Homo sapiens, UniProt P42336, Q546K); enzyme activity, inhibitor).
For Wee1-like protein kinase (WEE1, Homo sapiens, UniProt P30291); enzyme activity, inhibitor: inhibition read 4%.
It gave 5% for inhibition (ALK tyrosine kinase receptor (ALK, Homo sapiens, UniProt Q9UM73, C1156Y); cell-free assay).
Serine/threonine-protein kinase PAK 4 (PAK4, Homo sapiens, UniProt O96013); enzyme activity, inhibitor — inhibition: 13%.
The inhibition was 10% (Calcium/calmodulin-dependent protein kinase type 1D (CAMK1D, Homo sapiens, UniProt Q8IU85); enzyme activity, inhibitor).
The inhibition was 25% (Interferon-induced, double-stranded RNA-activated protein kinase (EIF2AK2, Homo sapiens, UniProt P19525); enzyme activity, inhibitor).
For SRSF protein kinase 2 (SRPK2, Homo sapiens, UniProt P78362); enzyme activity, inhibitor: inhibition read 7%.
Serine/threonine-protein kinase TNNI3K (TNNI3K, Homo sapiens, UniProt Q59H18); cell-free assay — inhibition: 42%.
The inhibition was 0% (Tyrosine-protein kinase SYK (SYK, Homo sapiens, UniProt P43405); enzyme activity, inhibitor).

Set 4
SMILES: C[C@H]1CC[C@H](n2c3cnccc3c3cnc(Nc4ccc5c(n4)CCN(C(=O)CO)C5)nc32)CC1
Concentration: 1 µM
The remaining binding was 100% (Tyrosine-protein kinase JAK3, JH1 (JAK3, Homo sapiens, UniProt P52333); cell-free assay, competition with immobilised ligand).
It gave 46% for remaining binding (Cyclin-dependent kinase-like 2 (CDKL2, Homo sapiens, UniProt Q92772); binding, competition with immobilised ligand).
Ankyrin repeat and protein kinase domain-containing protein 1 (ANKK1, Homo sapiens, UniProt Q8NFD2); binding — remaining binding: 100%.
For Cyclin-dependent kinase 19 (CDK19, Homo sapiens, UniProt Q9BWU1); DiscoverX KINOMEscan: remaining binding read 100%.
Serine/threonine-protein kinase Nek2 (NEK2, Homo sapiens, UniProt P51955); binding, competition with immobilised ligand — remaining binding: 100%.
For Phosphatidylinositol 3-kinase C2 domain-containing subunit gamma (PIK3C2G, Homo sapiens, UniProt O75747); binding: remaining binding read 100%.

Some of these lines once more (set 3):
The inhibition was 10% (Calcium/calmodulin-dependent protein kinase type 1D (CAMK1D, Homo sapiens, UniProt Q8IU85); enzyme activity, inhibitor).
The inhibition was 0% (Tyrosine-protein kinase SYK (SYK, Homo sapiens, UniProt P43405); enzyme activity, inhibitor).
